Measurements from different studies.
Every numbered part comes from another study and shows a few of its results, in no order. Substitutions count along the parent as printed.
UniProt Q01959, sequence (whole entry, looked up): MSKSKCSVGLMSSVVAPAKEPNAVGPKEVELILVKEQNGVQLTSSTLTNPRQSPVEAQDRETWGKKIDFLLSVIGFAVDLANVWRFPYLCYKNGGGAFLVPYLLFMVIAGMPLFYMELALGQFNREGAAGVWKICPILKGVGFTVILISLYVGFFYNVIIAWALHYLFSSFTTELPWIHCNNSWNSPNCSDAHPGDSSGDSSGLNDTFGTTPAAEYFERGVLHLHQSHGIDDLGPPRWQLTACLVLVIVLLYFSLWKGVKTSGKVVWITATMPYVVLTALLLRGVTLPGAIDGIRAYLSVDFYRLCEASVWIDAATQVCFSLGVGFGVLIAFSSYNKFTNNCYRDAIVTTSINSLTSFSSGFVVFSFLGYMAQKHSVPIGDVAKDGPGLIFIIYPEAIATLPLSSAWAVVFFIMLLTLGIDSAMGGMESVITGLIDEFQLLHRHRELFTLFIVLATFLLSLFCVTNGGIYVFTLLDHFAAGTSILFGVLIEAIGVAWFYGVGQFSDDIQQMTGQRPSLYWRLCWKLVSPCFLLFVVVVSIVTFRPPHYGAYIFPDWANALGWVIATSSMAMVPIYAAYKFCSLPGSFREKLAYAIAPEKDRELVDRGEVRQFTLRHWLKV
UniProt P23975, sequence (whole entry, looked up): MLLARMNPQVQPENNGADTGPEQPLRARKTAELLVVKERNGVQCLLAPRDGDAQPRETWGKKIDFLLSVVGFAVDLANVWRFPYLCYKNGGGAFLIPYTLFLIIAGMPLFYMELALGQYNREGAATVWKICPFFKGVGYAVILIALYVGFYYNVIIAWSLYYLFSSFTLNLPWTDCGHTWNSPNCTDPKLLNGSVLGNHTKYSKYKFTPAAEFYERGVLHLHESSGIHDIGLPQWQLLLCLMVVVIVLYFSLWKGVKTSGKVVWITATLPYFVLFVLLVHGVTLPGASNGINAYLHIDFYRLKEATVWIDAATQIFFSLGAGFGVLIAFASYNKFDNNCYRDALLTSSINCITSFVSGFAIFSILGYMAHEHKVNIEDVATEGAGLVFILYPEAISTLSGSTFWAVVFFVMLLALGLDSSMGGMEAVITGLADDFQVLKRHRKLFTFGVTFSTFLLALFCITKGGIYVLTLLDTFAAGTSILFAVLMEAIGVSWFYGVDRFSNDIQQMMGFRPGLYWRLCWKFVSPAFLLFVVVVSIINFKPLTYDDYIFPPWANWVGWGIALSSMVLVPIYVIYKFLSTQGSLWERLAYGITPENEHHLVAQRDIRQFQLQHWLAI
UniProt O60674, sequence (whole entry, looked up): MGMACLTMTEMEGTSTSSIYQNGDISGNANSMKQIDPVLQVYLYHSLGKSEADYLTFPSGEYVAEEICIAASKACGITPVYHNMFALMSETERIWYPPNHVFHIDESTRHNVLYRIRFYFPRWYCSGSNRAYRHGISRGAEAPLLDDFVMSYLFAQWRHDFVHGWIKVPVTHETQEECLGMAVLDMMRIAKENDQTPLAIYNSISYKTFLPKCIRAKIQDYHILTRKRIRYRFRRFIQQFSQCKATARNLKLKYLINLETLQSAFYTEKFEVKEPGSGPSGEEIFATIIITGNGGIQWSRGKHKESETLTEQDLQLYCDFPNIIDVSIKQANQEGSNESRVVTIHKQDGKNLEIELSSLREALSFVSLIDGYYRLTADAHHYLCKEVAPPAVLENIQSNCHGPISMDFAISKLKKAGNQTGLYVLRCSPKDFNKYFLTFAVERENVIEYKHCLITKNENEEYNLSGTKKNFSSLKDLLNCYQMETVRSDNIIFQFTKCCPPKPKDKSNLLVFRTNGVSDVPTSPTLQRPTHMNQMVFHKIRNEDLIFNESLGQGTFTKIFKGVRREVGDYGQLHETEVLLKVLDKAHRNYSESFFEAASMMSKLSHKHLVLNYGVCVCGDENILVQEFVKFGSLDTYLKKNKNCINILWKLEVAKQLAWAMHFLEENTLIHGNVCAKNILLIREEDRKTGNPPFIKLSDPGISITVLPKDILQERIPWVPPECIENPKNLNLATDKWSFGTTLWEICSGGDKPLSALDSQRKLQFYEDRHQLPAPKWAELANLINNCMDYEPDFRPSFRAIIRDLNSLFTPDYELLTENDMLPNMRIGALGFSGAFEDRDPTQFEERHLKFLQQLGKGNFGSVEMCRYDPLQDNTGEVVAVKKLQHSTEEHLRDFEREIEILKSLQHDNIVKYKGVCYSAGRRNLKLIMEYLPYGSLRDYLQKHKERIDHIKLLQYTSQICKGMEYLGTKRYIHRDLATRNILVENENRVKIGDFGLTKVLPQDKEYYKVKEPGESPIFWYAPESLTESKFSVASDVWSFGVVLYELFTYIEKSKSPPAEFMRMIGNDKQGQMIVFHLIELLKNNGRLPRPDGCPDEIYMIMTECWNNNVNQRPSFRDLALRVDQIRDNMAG

Sample 1
Target: CCNA1, cyclin fold, Cln2 fusion (human)
Technique: yeast growth competition, sequencing
Matrix: yeast
Setting: strong parent motif
Reference: not given
Direction: higher = stronger binding
Endpoint: normalised enrichment score
Parent: viral docking peptide; YKVKRRLVFGADD; partner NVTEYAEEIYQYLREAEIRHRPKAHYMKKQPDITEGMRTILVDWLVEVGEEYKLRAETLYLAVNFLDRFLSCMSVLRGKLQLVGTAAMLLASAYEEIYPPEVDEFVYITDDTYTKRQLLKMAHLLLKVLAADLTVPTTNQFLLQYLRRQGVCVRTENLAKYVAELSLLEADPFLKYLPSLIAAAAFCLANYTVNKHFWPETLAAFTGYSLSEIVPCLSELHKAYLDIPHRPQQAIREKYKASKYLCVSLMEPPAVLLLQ
A11Y: 1.28
K2T: 1.39
K2G: 1.6
V3Y: 0.656
K2N: 1.34

Sample 2
Compound: COc1cccc(NC(=O)c2nc3scc(CN(C)Cc4ccccc4)c3c(=O)[nH]2)c1
Observed: ligand displacement
Concentration: 10 µM
Endpoint: inhibition
Sodium-dependent noradrenaline transporter (SLC6A2, Homo sapiens, UniProt P23975): 19.6%
Sodium-dependent dopamine transporter (SLC6A3, Homo sapiens, UniProt Q01959): -7.85%
Sodium-dependent serotonin transporter (SLC6A4, Homo sapiens, UniProt P31645): 84%

Sample 3
Target: HLA class I histocompatibility antigen, C alpha chain, allele C*04:01 (Homo sapiens, UniProt P10321)
Observed: peptide-MHC binding
Form: peptide
Concentration: concentration not given
Endpoint: binding
YYNAFHWA: inactive
RYNCKCCWF: inactive
YTYDLAEYR: inactive
SLLERGQQLGV: inactive
TYLSSSLFL: inactive
YSLEYFQFVKK: inactive
WTFTPTTPL: inactive
YARRYFYPL: inactive

Mixed results
O=C1NC(=O)c2c1c1c3ccccc3n3c1c1c2c2ccccc2n1[C@H]1CC[C@@H]3O1
remaining activity (Tyrosine-protein kinase JAK2 (JAK2, Homo sapiens, UniProt O60674); enzyme activity, inhibitor; 0.5 µM; reference: control): 14.2%

Excerpt of the above (sample 2):
Sodium-dependent noradrenaline transporter (SLC6A2, Homo sapiens, UniProt P23975): 19.6%
Sodium-dependent dopamine transporter (SLC6A3, Homo sapiens, UniProt Q01959): -7.85%
